Measured values from different studies.
Parts stem from different laboratories: compare values within a part only. “And” joins repeats or separate records; there may be more than shown.
Sequence of UniProt Q96SW2 (whole entry, looked up): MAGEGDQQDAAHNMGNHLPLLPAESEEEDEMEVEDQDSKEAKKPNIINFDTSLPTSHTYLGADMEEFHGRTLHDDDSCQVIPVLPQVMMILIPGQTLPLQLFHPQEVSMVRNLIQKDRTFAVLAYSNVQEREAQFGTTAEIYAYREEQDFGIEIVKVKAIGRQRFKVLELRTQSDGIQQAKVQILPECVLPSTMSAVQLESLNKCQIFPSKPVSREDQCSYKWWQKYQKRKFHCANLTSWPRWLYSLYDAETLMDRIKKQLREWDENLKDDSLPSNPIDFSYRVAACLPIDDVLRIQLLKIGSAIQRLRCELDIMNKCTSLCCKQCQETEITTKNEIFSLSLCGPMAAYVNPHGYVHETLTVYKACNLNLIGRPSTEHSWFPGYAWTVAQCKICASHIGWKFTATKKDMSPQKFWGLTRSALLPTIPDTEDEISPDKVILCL

Study 1
SMILES: CCN1/C(=C/C=C2\CCCC(/C=C/C3=[N+](CC)c4ccccc4C3(C)C)=C2NCCCCCCCCN2CCC(Nc3nc4ccccc4n3Cc3ccc(F)cc3)CC2)C(C)(C)c2ccccc21
Cell line: U-87 MG
Tested at: concentration not given
Relative to: DMSO
Endpoint: log2 fold change
item = OSGIN1 mRNA; value = 1.45
item = PTTG1 mRNA; value = -1.11
item = MAFG mRNA; value = 0.899
item = BRAP mRNA; value = 0.993
item = CGRRF1 mRNA; value = 0.942
item = DYNC2I2 mRNA; value = -1.3
item = SPRED3 mRNA; value = 1.18
item = NDC80 mRNA; value = -1.87
item = NES mRNA; value = -2.06
item = SFXN5 mRNA; value = -1.04
item = PSMD8 mRNA; value = 0.864

Study 2
SMILES: C[C@@H]1CN(c2ccc(-c3cc(C(=O)NCCOCCOCCOCCOCCNC(=O)/C=C/c4[nH]cc(C(=O)N[C@@H](CC(N)=O)c5ccc(F)c(Cl)c5)c4-c4ccc(Cl)cc4F)ccc3F)cc2NC(=O)c2c[nH]c(=O)cc2C(F)(F)F)C[C@H](C)N1C
Observed: thermal unfolding
Technique: differential scanning fluorimetry
Tested at: 5.5 µM
Direction: higher = more unfolded
Endpoint: SYPRO Orange fluorescence
DCAF1: DDB1- and CUL4-associated factor 1 (DCAF1, Homo sapiens, UniProt Q9Y4B6)
Sequence of UniProt Q9Y4B6 (whole entry, looked up): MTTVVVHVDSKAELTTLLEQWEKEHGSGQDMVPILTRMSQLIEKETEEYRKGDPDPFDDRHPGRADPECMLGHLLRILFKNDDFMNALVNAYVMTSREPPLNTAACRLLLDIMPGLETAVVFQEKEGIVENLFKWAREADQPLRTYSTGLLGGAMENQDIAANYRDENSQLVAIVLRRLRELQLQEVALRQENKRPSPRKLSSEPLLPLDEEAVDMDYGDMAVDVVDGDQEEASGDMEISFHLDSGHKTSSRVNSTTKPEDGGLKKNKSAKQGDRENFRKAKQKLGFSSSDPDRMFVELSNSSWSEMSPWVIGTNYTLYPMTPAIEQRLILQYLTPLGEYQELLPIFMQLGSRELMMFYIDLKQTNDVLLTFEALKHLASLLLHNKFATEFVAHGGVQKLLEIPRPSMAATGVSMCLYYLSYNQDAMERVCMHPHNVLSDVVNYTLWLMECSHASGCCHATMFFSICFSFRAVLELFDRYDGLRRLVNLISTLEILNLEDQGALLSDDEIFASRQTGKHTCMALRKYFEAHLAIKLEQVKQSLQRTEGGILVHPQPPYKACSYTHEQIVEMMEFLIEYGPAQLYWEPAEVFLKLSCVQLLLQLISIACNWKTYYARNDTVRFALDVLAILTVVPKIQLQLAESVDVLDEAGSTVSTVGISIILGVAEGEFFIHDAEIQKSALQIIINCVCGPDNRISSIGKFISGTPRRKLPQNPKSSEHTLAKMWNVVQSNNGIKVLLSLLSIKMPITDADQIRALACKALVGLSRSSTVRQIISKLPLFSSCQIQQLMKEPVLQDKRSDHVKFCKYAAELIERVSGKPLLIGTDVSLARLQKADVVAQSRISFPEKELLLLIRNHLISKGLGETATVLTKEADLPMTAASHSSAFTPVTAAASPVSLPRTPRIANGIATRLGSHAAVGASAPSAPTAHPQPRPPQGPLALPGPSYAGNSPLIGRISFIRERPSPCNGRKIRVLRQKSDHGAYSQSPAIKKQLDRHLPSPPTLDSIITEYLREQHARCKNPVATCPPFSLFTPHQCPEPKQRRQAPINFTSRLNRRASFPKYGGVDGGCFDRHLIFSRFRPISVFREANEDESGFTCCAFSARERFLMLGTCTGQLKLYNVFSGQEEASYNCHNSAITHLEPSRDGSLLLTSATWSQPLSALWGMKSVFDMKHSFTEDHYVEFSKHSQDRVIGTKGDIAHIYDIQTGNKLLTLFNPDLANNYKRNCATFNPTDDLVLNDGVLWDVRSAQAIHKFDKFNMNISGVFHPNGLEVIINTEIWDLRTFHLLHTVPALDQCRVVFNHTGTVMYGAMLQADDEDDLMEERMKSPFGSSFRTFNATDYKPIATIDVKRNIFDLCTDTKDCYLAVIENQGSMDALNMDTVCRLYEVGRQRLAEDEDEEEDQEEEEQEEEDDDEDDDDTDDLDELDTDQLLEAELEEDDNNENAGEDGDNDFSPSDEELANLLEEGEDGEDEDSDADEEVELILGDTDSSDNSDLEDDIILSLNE
WDR5: WD repeat-containing protein 5 (WDR5, Homo sapiens, UniProt P61964)
target = DCAF1; temperature = 92.61 °C; value = 32100 a.u.
target = DCAF1; temperature = 87.01 °C; value = 37800 a.u.
target = WDR5; temperature = 72.81 °C; value = 20800 a.u.
target = WDR5; temperature = 67.61 °C; value = 14200 a.u.
target = DCAF1; temperature = 39.2 °C; value = 11300 a.u.
target = WDR5; temperature = 68.81 °C; value = 15000 a.u.
target = DCAF1; temperature = 42.8 °C; value = 12400 a.u.
target = DCAF1; temperature = 35.6 °C; value = 10400 a.u.

Single results of other studies
KRAS G12D GDP-bound: GTPase KRas, GDP-bound (KRAS, Homo sapiens, UniProt P01116, G12D)
SMILES = Cc1ncsc1-c1ccc(C2(NC(=O)C3CC(O)CN3C(=O)C(NC(=O)c3ccc(COc4c(-c5c(C)c(F)cc6[nH]ncc56)c(C5CC5)cc5c(N6CC7CC6CN7)nc(OC6CCOCC6)nc45)cc3)C(C)(C)C)CC2)cc1 (stereo not drawn); target or system = KRAS G12D GDP-bound; test = binder, single-cycle SPR; setting = binary, without VCB; endpoint = dissociation rate constant (kd); value = 0.014 s⁻¹ and 0.0179 s⁻¹ and 0.015 s⁻¹
SMILES = Cc1ccc(O)c(C)c1-c1cnc2[nH]c(-c3cnc(N4CCC5(CC4)CC(N4CCN(c6ccc(N[C@H]7CCC(=O)NC7=O)cc6F)CC4)CO5)nc3)cc2c1C#N (single isomer, unassigned); target or system = Protein cereblon (CRBN, Homo sapiens, UniProt Q96SW2); setting = 3333.33 nM; endpoint = binding; value = 29.4% and 18.2%
SMILES = CCN1CCN(Cc2ccc(COc3c(-c4c(C)c(F)cc5[nH]ncc45)c(C4CC4)cc4c(N5C[C@@H]6C[C@H]5CN6)nc(OC5CCOCC5)nc34)cc2)C(=O)C1; target or system = AsPC-1; test = cell viability, CellTiter-Glo; endpoint = IC50; value = 230 nM
SMILES = Cc1ccc(O)c(C)c1-c1cnc2[nH]c(-c3cnc(N4CC5(CC(CN6CCN(c7ccc(NC8CCC(=O)NC8=O)cc7F)CC6)C5)C4)nc3)cc2c1C#N (stereo not drawn); system = CD-1 mouse; setting = intravenous, dose not given, 6 h; endpoint = plasma concentration; value = not detected
SMILES = Cc1ncsc1-c1ccc(C(CO)NC(=O)C2CC(O)CN2C(=O)C(NC(=O)c2ccc(COc3c(-c4c(C)c(F)cc5[nH]ncc45)c(C4CC4)cc4c(N5CC6CC5CN6)nc(OC5CCOCC5)nc34)cc2)C(C)C)cc1 (stereo not drawn); target or system = KRAS G12D GDP-bound; test = binder, single-cycle SPR; setting = binary, without VCB; endpoint = dissociation rate constant (kd); value = 0.00789 s⁻¹ and 0.00693 s⁻¹ and 0.00915 s⁻¹
SMILES = Cc1ccc(O)c(C)c1-c1cnc2[nH]c(-c3cnc(N4CCC(CN5CCN(c6ccc7c(c6F)CN(C6CCC(=O)NC6=O)C7=O)CC5)CC4)nc3)cc2c1C#N (stereo not drawn); system = CD-1 mouse, female, plasma; setting = oral, 20 mg/kg; endpoint = half-life; value = 2.3 h
SMILES = Cc1ncsc1-c1ccc(C(CO)NC(=O)C2CC(O)CN2C(=O)C(C(C)C)n2cc(-c3ccc(COc4c(-c5c(C)c(F)cc6[nH]ncc56)c(C5CC5)cc5c(N6CC7CC6CN7)nc(OC6CCOCC6)nc45)cc3)nn2)cc1 (stereo not drawn); target or system = von Hippel-Lindau disease tumor suppressor, with Elongin B/C (VHL, Homo sapiens, UniProt P40337); test = SPR, single-cycle; system = immobilized VCB complex; setting = binary, geometric mean; endpoint = Kd; value = 7.45 nM
SMILES = Cc1ccc(O)c(C)c1-c1cnc2[nH]c(-c3cnc(N4CCC(CN5CCN(c6ccc(NC7CCC(=O)NC7=O)cc6F)CC5)CC4)nc3)cc2c1C#N (stereo not drawn); system = male cynomolgus monkey, plasma; setting = intravenous, 1 mg/kg; endpoint = clearance; value = 7.4 mL/min/kg

Repeated from above (single results of other studies):
SMILES = CCN1CCN(Cc2ccc(COc3c(-c4c(C)c(F)cc5[nH]ncc45)c(C4CC4)cc4c(N5C[C@@H]6C[C@H]5CN6)nc(OC5CCOCC5)nc34)cc2)C(=O)C1; target or system = AsPC-1; test = cell viability, CellTiter-Glo; endpoint = IC50; value = 230 nM
SMILES = Cc1ccc(O)c(C)c1-c1cnc2[nH]c(-c3cnc(N4CC5(CC(CN6CCN(c7ccc(NC8CCC(=O)NC8=O)cc7F)CC6)C5)C4)nc3)cc2c1C#N (stereo not drawn); system = CD-1 mouse; setting = intravenous, dose not given, 6 h; endpoint = plasma concentration; value = not detected
SMILES = Cc1ncsc1-c1ccc(C(CO)NC(=O)C2CC(O)CN2C(=O)C(NC(=O)c2ccc(COc3c(-c4c(C)c(F)cc5[nH]ncc45)c(C4CC4)cc4c(N5CC6CC5CN6)nc(OC5CCOCC5)nc34)cc2)C(C)C)cc1 (stereo not drawn); target or system = KRAS G12D GDP-bound; test = binder, single-cycle SPR; setting = binary, without VCB; endpoint = dissociation rate constant (kd); value = 0.00789 s⁻¹ and 0.00693 s⁻¹ and 0.00915 s⁻¹
SMILES = Cc1ccc(O)c(C)c1-c1cnc2[nH]c(-c3cnc(N4CCC(CN5CCN(c6ccc7c(c6F)CN(C6CCC(=O)NC6=O)C7=O)CC5)CC4)nc3)cc2c1C#N (stereo not drawn); system = CD-1 mouse, female, plasma; setting = oral, 20 mg/kg; endpoint = half-life; value = 2.3 h
